Measured values gathered from unrelated publications.
Numbered parts are unrelated; each lists some results of a single study.

Set 1 — method: protein-binding microarray; form: double-stranded DNA, one strand shown; medium: in vitro; tested at: not given; reading: higher = stronger binding
Target: Protein C-ets-1 (ETS1, Homo sapiens, UniProt P14921, residues 1-441, K379A, full length assumed)
Notes: k-mer, scored over probes, only values ≥0.25
Construct (chain): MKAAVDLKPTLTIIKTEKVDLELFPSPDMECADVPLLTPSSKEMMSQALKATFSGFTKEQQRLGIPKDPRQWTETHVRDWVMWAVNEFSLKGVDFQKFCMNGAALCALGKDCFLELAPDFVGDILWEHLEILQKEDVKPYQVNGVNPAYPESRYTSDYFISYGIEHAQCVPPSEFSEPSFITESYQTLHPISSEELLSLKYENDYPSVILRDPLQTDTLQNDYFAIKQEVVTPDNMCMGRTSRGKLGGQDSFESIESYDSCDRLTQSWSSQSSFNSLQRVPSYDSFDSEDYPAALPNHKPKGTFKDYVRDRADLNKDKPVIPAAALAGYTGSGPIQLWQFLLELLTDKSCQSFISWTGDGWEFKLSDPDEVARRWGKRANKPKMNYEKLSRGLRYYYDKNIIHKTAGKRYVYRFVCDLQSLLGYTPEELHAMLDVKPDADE
| Oligonucleotide | E-score |
| --- | --- |
| ACCAATAC | 0.292 |
| CCGGACCG | 0.272 |
| AATAACGG | 0.287 |
| GACAGACA | 0.294 |
| ACTACCGG | 0.363 |
| ATAATAAC | 0.252 |
| TGTATCAA | 0.276 |
| ATTATACC | 0.302 |
| GGACTACA | 0.283 |
| ACTTAGAT | 0.255 |
| CGTCGACC | 0.262 |
| CGACAAAA | 0.26 |
| CACTCCGG | 0.29 |
| GTTCCGGA | 0.365 |
| CCGGTTGC | 0.449 |
| CACCGTCG | 0.331 |
| ACACCGAC | 0.376 |
| ACCGGGAA | 0.42 |
| CACCGACG | 0.369 |
| ATATGAAC | 0.263 |
| TATAGAAA | 0.259 |
| GTGTCGTA | 0.263 |
| GTTTTCAA | 0.25 |
| GGTAATTA | 0.27 |
| ATCACGAC | 0.254 |

Set 2 — method: protein binding microarray; form: double-stranded DNA, one strand shown; medium: in vitro; tested at: not given; relative to: not given; reading: higher = stronger binding
Target: Histone acetyltransferase KAT6A, winged helix 1, GST fusion (KAT6A, Homo sapiens, UniProt Q92794, residues 1-85)
Notes: 8-mer, flanks averaged, mean of 2 arrays, mostly near background
Construct (chain): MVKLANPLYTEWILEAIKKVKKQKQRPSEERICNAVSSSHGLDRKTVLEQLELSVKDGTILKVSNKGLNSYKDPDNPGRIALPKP
| Oligonucleotide | E-score |
| --- | --- |
| AATCGCGG | 0.263 |
| CCTCCATA | -0.00037 |
| AGTGCACG | 0.189 |
| GGAATCAA | 0.0313 |
| AAAAAACG | 0.0462 |
| ATCTGGTA | -0.156 |
| TATAGTGA | -0.146 |
| ACCGTCGT | 0.067 |
| GATCTAAA | -0.126 |
| TCACCGAA | -0.193 |
| ATTACCAG | 0.0417 |
| CCTGAATA | -0.0449 |
| ATATGAGA | -0.192 |
| TGCGCTAA | 0.238 |
| AATTTTAC | -0.0697 |
| GTTAGAAC | -0.0617 |
| AAATGCGA | -0.00855 |
| CTGCTAAA | -0.0514 |

Set 3 — method: RNA Bind-n-Seq; form: RNA; medium: in vitro; tested at: 365 nM; relative to: no-protein control; reading: higher = stronger binding
Target: RNA binding protein fox-1 homolog 2, RRM domain, GST-SBP tag (RBFOX2, Homo sapiens, UniProt O43251-10, residues 100-194)
Notes: natural RNA segment, single round, ends assumed
Target sequence (chain): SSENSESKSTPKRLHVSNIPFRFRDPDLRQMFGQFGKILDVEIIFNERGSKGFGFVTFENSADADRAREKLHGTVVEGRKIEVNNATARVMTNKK
| Oligonucleotide | RBNS enrichment (R) |
| --- | --- |
| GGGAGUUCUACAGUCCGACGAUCAUUCUGUUGGGUUUGGGCACAUAGGGCCAAAGGCAGAGGAGGGUGGCACUCUCAUGUUGGAACUUCUUUUGGGCUCAUGCUCAGGCCUUUUUUGGAUCACUAAGGACUAUUGGAAUUCUCGGGUGCCAA | 0.837 |
| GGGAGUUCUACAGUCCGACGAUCAUCAUUGGGUCCCCUGAGCUCCAUGAAGGACCCUCUGUUGUCCCCUUGAUGAUUUAUCAGGCAUGAGAGUAGCAGACAGGAUUGCCUUGAGAAACACACAGACAACAACGUGGAAUUCUCGGGUGCCAA | 0.297 |
| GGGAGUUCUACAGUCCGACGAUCGCAGGGGCAAGUGUACAAUGGGGCCUAGUCCCCAGCAGGCGGCUGGGAGGCCGCCACUGAGCAUCUCUAUUUGUCAUUCCUUUAGCUAUUUAGGGACCAAAGGACCAAACUGGAAUUCUCGGGUGCCAA | 0.266 |
| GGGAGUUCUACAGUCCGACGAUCAUGAACUGCAGGCCCCCUUUUGCCAUUGAUCUCAAAGCACUUGUCCUCAGGAUAGGGAAGAGCAGGGGGAUGCAGGAAUAGCAGGGAUAGCUUGCUCCCAGCCCCCUCCCUGGAAUUCUCGGGUGCCAA | 1.07 |
| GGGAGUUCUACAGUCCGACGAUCAGCUCACAGCACACCGACUCCGGAGAGAUGGAAGUGGAUAAGUGUCAUGUUAUCCAAGCAGUGGGUUAACUAAAGGGCCCAUUCAUCCUUUAUGCCCGGUACACACAACAUGGAAUUCUCGGGUGCCAA | 0.583 |
| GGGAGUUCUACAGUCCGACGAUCUCAUAAAAGUAGCAACCUUCAUUUUACAUUCUGUCUGUUUUUCUUUUUUUGCUUUGUUUUGUUUGUGCUAAUUUGGGAAUUGUGUACUCCGAAACAAGUAGAAAAGUGCUUGGAAUUCUCGGGUGCCAA | 1.18 |
| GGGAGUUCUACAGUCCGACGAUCAGACCAAUUGGAUUUUCAUGGAGGCCAGGACAGAGAGUGGUAAUUGAUGGCUUGUGUACAGACAAGCAUUUAUCCAGGUUGCGUUAUCCAAACUGAUUUGUUAAAGCUCCUGGAAUUCUCGGGUGCCAA | 1.81 |
| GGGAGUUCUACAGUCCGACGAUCCAUAUUUUAAAUGUUUGAAAAAGAGUCACUAACAAAGUGGAUUUUAUUUUAAAGCAGAUUUCUUCAGAAGCUAUCAUGGUCCCAGGGACUAGGUAGAAUUUUUAAGUCUAUGGAAUUCUCGGGUGCCAA | 0.36 |

Set 4 — method: RNA Bind-n-Seq; form: RNA; medium: in vitro; tested at: 1 µM; notes: whole 134-nt RNA, ends assumed; together with: 150 mM KCl; relative to: input library; reading: higher = stronger binding
Target: Ras GTPase-activating protein-binding protein 1, C-terminal RGG region (G3BP1, Homo sapiens, UniProt Q13283)
UniProt Q13283, sequence (whole entry, looked up): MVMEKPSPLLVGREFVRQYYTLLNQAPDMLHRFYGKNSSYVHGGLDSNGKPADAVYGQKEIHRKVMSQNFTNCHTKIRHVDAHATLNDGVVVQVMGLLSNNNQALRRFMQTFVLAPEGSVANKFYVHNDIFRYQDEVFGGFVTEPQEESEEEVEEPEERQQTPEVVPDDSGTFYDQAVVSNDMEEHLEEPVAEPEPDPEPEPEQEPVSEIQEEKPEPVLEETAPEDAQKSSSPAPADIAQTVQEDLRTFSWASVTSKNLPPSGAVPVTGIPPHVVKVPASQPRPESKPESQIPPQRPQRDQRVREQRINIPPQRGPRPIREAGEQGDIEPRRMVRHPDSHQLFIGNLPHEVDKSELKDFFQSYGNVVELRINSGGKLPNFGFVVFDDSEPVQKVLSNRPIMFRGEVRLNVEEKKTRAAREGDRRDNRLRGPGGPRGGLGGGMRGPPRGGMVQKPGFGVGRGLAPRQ
| Oligonucleotide | log2 enrichment |
| --- | --- |
| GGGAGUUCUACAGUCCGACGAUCUCCUCAAGUCCUGUGCUACACAUCGUAUGUACCGAAUCGGAGGAAAGGUGGAAAGUAUUAUGUUACGCCGUUCGGAUCUGCACUUCCAGCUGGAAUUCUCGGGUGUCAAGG | -1.25 |
| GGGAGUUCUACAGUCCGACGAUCAAGUCCUGUGCUACACAUCGUAUGUACCGAAUCGGUUUUUGGUUUUUGGAAAAAGGAAAGUAUUAUGUUACGCCGUUCGGAUCUGCACUUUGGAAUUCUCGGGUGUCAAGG | -1.99 |
| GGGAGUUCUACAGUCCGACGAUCAAGUCCUGUGCUACACAUCGUAUGUACCGAAUCGGGGAAAGGGGAAAGGGGUGGGGAAAGUAUUAUGUUACGCCGUUCGGAUCUGCACUUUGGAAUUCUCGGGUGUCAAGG | 2.98 |
| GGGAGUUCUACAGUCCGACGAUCAGUCCUGUGCUACACAUCGUAUGUACCGAAUCGGGGUUUGGGGAAAAAGGGGAGGGGAAAGUAUUAUGUUACGCCGUUCGGAUCUGCACUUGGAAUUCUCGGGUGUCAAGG | 2.87 |
| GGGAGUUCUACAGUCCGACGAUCCUCAAGUCCUGUGCUACACAUCGUAUGUACCGAAUCGGUUUUUUUGGUGGUGGAAAGUAUUAUGUUACGCCGUUCGGAUCUGCACUUCCAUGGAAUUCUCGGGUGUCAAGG | -1.02 |
| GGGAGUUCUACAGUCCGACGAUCGCAGGAAGUAAAAACAAAUGGAAAUGCUUCGGAUAGUGGCAGGGGUGGGGGUUGCUAAGGAAAGGGUGGGAUGGGAGUGCGUAAAGAGUUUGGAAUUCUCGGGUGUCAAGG | 1.63 |
| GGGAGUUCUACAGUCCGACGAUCUCCUGUGCUACACAUCGUAUGUACCGAAUCGGGGCCCCCGGGGCCCCCGGGGCCCCCGGGAAAGUAUUAUGUUACGCCGUUCGGAUCUGCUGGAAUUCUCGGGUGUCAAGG | -1.97 |
| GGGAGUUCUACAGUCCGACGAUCCUGUGCUACACAUCGUAUGUACCGAAUCGGCCCCCCCGGGGCCCCCCCGGCCCCCCCGGGGAAAGUAUUAUGUUACGCCGUUCGGAUCUGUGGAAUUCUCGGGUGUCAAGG | -1.82 |
| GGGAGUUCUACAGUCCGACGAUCGUCCUGUGCUACACAUCGUAUGUACCGAAUCAAACCCCCAAACCCCCAAAUUUUUAAAAAAGUAUUAUGUUACGCCGUUCGGAUCUGCACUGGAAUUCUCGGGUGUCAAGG | -0.847 |

A few entries again (set 2):
| Oligonucleotide | E-score |
| --- | --- |
| ATTACCAG | 0.0417 |
| CCTGAATA | -0.0449 |
| ATATGAGA | -0.192 |
| TGCGCTAA | 0.238 |
| AATTTTAC | -0.0697 |
| GTTAGAAC | -0.0617 |
